Published values gathered from unrelated publications.
Each line is one published result; not all experiments were run side by side.
Organism: Acinetobacter baumannii

CC[C@H](C)[C@H](NC(=O)CNC(=O)[C@H](CC(=O)O)NC(=O)[C@H](CCCNC(=N)N)NC(=O)[C@@H](NC(=O)[C@H](CC(N)=O)NC(=O)[C@H](CCCNC(=N)N)NC(=O)CNC(=O)[C@@H](NC(=O)[C@H](CCCCN)NC(=O)[C@H](CCC(=O)O)NC(=O)[C@@H](NC(=O)[C@H](CCCCN)NC(=O)[C@H](CCCCN)NC(=O)[C@H](Cc1ccccc1)NC(=O)[C@@H](NC(=O)[C@H](CCCCN)NC(=O)[C@H](Cc1c[nH]c2ccccc12)NC(=O)[C@@H](N)CCCNC(=N)N)[C@@H](C)CC)[C@@H](C)CC)C(C)C)C(C)C)C(=O)N[C@H](C(=O)N[C@@H](CCCCN)C(=O)N[C@@H](C)C(=O)NCC(=O)N1CCC[C@H]1C(=O)N[C@@H](C)C(=O)N[C@H](C(=O)N[C@@H](C)C(=O)N[C@H](C(=O)N[C@H](C(=O)NCC(=O)N[C@@H](CCC(N)=O)C(=O)N[C@@H](C)C(=O)N[C@@H](C)C(=O)N[C@H](C(=O)N[C@H](C(=O)N[C@H](C(=O)N[C@@H](CCCCN)C(N)=O)C(C)C)C(C)C)[C@@H](C)O)C(C)C)C(C)C)C(C)C)[C@@H](C)CC — MIC (CCARM 12004 carbapenem-resistant): 1 µM
CC[C@H](C)CCCCC(=O)N[C@@H](CCN)C(=O)N[C@H](C(=O)N[C@@H](CCN)C(=O)N[C@H]1CCNC(=O)[C@H]([C@@H](C)O)NC(=O)[C@H](CCN)NC(=O)[C@H](CCN)NC(=O)[C@H](CC(C)C)NC(=O)[C@@H](CC(C)C)NC(=O)[C@H](CCN)NC1=O)[C@@H](C)O — MIC (broth microdilution; ATCC 19606): 0.25 µg/mL
C[C@@H](O)[C@H]1C(=O)N2C(C(=O)O)=C(SCCN=CN)C[C@H]12 — MIC (CCARM 12006 carbapenem-resistant, Mueller-Hinton broth; 16 h, 37 °C): 128 µM
CO/N=C(\C(=O)N[C@@H]1C(=O)N2C(C(=O)O)=C(COC(C)=O)CS[C@H]12)c1csc(N)n1 — MIC (carbapenem-resistant clinical isolate): > 32 µg/mL
CC[C@H](C)[C@H](NC(=O)[C@H](CC(C)C)NC(=O)[C@H](CCCNC(=N)N)NC(=O)[C@@H](N)CCCNC(=N)N)C(=O)N[C@@H](CCCNC(=N)N)C(=O)N[C@H](C(=O)N[C@@H](CCCCN)C(=O)N[C@H](C(=O)NCC(=O)N1CCC[C@H]1C(=O)N[C@H](C(=O)N[C@H](C(=O)N[C@@H](Cc1ccc(O)cc1)C(=O)N[C@@H](CCCCN)C(=O)N[C@@H](Cc1ccc(O)cc1)C(=O)N[C@@H](Cc1ccccc1)C(=O)N[C@@H](CCCCN)C(=O)N[C@@H](CCCCN)C(=O)N[C@@H](CCC(N)=O)C(=O)N[C@@H](CC(C)C)C(=O)N[C@@H](CC(C)C)C(=O)N[C@@H](CCCCN)C(=O)N[C@@H](CCCCN)C(N)=O)[C@@H](C)CC)[C@@H](C)CC)[C@@H](C)O)[C@@H](C)O — MIC (KCCM 40203, Mueller-Hinton broth; 24 h): 2 µM
CCCCCCCC(=O)N[C@@H](CCN)C(=O)N[C@H](C(=O)N[C@@H](CCN)C(=O)N[C@H]1CCNC(=O)[C@H]([C@@H](C)O)NC(=O)[C@H](CCN)NC(=O)[C@H](CCN)NC(=O)[C@H](Cc2ccccc2)NC(=O)[C@@H](CCc2ccccc2)NC(=O)[C@H](CCN)NC1=O)[C@@H](C)O — MIC (broth microdilution; ATCC 19606, colistin-susceptible): 0.125 to 0.25 µg/mL
CCCCCC(=O)N[C@@H](CCCNC(=N)N)C(=O)N[C@@H](CCCNC(=N)N)C(=O)N[C@@H](CCCNC(=N)N)C(=O)N[C@@H](CCCNC(=N)N)C(=O)N[C@H](C(=O)N[C@@H](CC(C)C)C(=O)N[C@H](C(=O)N[C@@H](CCCNC(=N)N)C(=O)N[C@@H](CCCNC(=N)N)C(=O)N[C@H](C(=O)N[C@@H](CC(C)C)C(=O)N[C@@H](CCCNC(=N)N)C(=O)N[C@@H](CC(C)C)C(=O)N[C@@H](CCCNC(=N)N)C(=O)N[C@@H](CO)C(=O)N[C@@H](CO)C(=O)N[C@@H](C)C(=O)N[C@@H](Cc1ccc(O)cc1)C(N)=O)C(C)C)[C@@H](C)CC)[C@@H](C)CC — MIC (broth microdilution; ATCC 17978; highest value reported): 4 µM
Cn1c(=O)ccc2ccc(F)c(CCNC[C@H]3CN(c4ccc5c(n4)NC(=O)CO5)C(=O)O3)c21 — MIC (ATCC 19606): 0.015 µg/mL
CC[C@H](C)[C@H](N)C(=O)N[C@@H](CCCNC(=N)N)C(=O)N[C@H](C(=O)N[C@@H](Cc1c[nH]c2ccccc12)C(=O)N[C@@H](Cc1c[nH]c2ccccc12)C(=O)N[C@@H](CCCCN)C(=O)N[C@H](C(=O)N[C@H](C(=O)N[C@@H](CCCNC(=N)N)C(=O)N[C@@H](CCCCN)C(=O)N[C@@H](Cc1c[nH]c2ccccc12)C(=O)N[C@@H](CCCCN)C(=O)N[C@@H](C)C(=O)N[C@H](C(=O)N[C@@H](Cc1c[nH]c2ccccc12)C(=O)N[C@@H](Cc1c[nH]cn1)C(N)=O)[C@@H](C)CC)C(C)C)[C@@H](C)CC)C(C)C — MIC (broth dilution; ATCC 19606): 6.3 µM
CC[C@H](C)[C@H](NC(=O)[C@H](CCCCN)NC(=O)[C@H](CCCCN)NC(=O)CNC(=O)[C@H](CCCCN)NC(=O)[C@H](CC(C)C)NC(=O)[C@H](CCCCN)NC(=O)[C@H](CCCNC(=N)N)NC(=O)[C@@H](NC(=O)[C@H](CC(C)C)NC(=O)[C@H](CCCNC(=N)N)NC(=O)[C@@H](N)CCCNC(=N)N)[C@@H](C)CC)C(=O)N[C@@H](Cc1ccc(O)cc1)C(=O)N[C@@H](CC(C)C)C(=O)N[C@@H](Cc1ccc(O)cc1)C(=O)N[C@@H](Cc1ccccc1)C(=O)N[C@@H](CCCCN)C(=O)N[C@@H](CC(C)C)C(=O)N[C@@H](CCC(N)=O)C(=O)N[C@@H](CC(C)C)C(=O)N[C@@H](CC(C)C)C(=O)N[C@@H](CCCCN)C(=O)N[C@@H](CCCCN)C(N)=O — MIC (ATCC BAA1605, Mueller-Hinton broth; 24 h): 4 µM
CC[C@H](C)[C@H](NC(=O)CN)C(=O)NCC(=O)N[C@@H](C)C(=O)N[C@H](C(=O)N[C@@H](CC(C)C)C(=O)N[C@@H](CCCCN)C(=O)N[C@H](C(=O)N[C@@H](CC(C)C)C(=O)N[C@H](C(=O)N[C@H](C(=O)NCC(=O)N[C@@H](CC(C)C)C(=O)N1CCC[C@H]1C(=O)N[C@@H](C)C(=O)N[C@@H](CC(C)C)C(=O)N[C@H](C(=O)N[C@@H](CO)C(=O)N[C@@H](Cc1c[nH]c2ccccc12)C(=O)N[C@H](C(=O)N[C@@H](CCCCN)C(=O)N[C@@H](CCCNC(=N)N)C(=O)N[C@@H](CCCCN)C(=O)N[C@@H](CCCNC(=N)N)C(=O)N[C@@H](CCC(N)=O)C(=O)N[C@@H](CCC(N)=O)C(N)=O)[C@@H](C)CC)[C@@H](C)CC)[C@@H](C)O)[C@@H](C)O)C(C)C)C(C)C — MIC (CCARM 12006 carbapenem-resistant): 16 µM
CC(=O)N[C@@H](CC(C)C)C(=O)N[C@@H](CC(C)C)C(=O)N[C@@H](CCCCN)C(=O)N[C@@H](CC(C)C)C(=O)N[C@@H](CC(C)C)C(=O)N[C@@H](CCCCN)C(=O)N[C@@H](CCCCN)C(=O)N1CCC[C@H]1C(=O)N[C@@H](CC(C)C)C(=O)N[C@@H](CCCCN)C(=O)N[C@@H](CC(C)C)C(=O)N[C@@H](CC(C)C)C(=O)N[C@@H](CCCCN)C(N)=O — MIC (broth microdilution; ATCC 17978; 18 h, 37 °C, compound alone): > 80 µM
C[C@H]1COc2c(N3CCN(C)CC3)c(F)cc3c(=O)c(C(=O)O)cn1c23 — MIC (1189854, multidrug-resistant): > 8 µg/mL
N=C(N)NCCC[C@H](NC(=O)[C@@H](N)CCCNC(=N)N)C(=O)N[C@@H](Cc1c[nH]c2ccccc12)C(=O)N[C@@H](Cc1c[nH]c2ccccc12)C(=O)N[C@@H](CCC(N)=O)C(=O)N[C@@H](Cc1ccccc1)C(=O)N[C@@H](CCC(N)=O)C(=O)N[C@@H](Cc1ccccc1)C(=O)N[C@@H](CCCCN)C(N)=O — MIC (broth microdilution, optical density): 40 µM
CC[C@H](C)[C@H](NC(=O)CNC(=O)[C@H](CC(=O)O)NC(=O)[C@H](CCC(=O)O)NC(=O)[C@@H](NC(=O)[C@H](CC(N)=O)NC(=O)[C@H](CCCNC(=N)N)NC(=O)CNC(=O)[C@@H](NC(=O)[C@H](CCCCN)NC(=O)[C@H](CCC(=O)O)NC(=O)[C@@H](NC(=O)[C@H](CCCCN)NC(=O)[C@H](CCCCN)NC(=O)[C@H](Cc1ccccc1)NC(=O)[C@@H](NC(=O)[C@H](CCCCN)NC(=O)[C@H](Cc1c[nH]c2ccccc12)NC(=O)[C@@H](N)CCCNC(=N)N)[C@@H](C)CC)[C@@H](C)CC)C(C)C)C(C)C)C(=O)N[C@H](C(=O)N[C@@H](CCCCN)C(=O)N[C@@H](C)C(=O)NCC(=O)N1CCC[C@H]1C(=O)N[C@@H](C)C(=O)N[C@H](C(=O)N[C@@H](C)C(=O)N[C@H](C(=O)N[C@H](C(=O)NCC(=O)N[C@@H](CCC(N)=O)C(=O)N[C@@H](C)C(=O)N[C@@H](C)C(=O)N[C@H](C(=O)N[C@H](C(=O)N[C@H](C(=O)N[C@@H](CCCCN)C(N)=O)C(C)C)C(C)C)[C@@H](C)O)C(C)C)C(C)C)C(C)C)[C@@H](C)CC — MIC (KCCM 40203, Mueller-Hinton broth; 16 h, 37 °C; growth inhibition over 99%): 32 µM

Repeated from above:
CC[C@H](C)[C@H](N)C(=O)N[C@@H](CCCNC(=N)N)C(=O)N[C@H](C(=O)N[C@@H](Cc1c[nH]c2ccccc12)C(=O)N[C@@H](Cc1c[nH]c2ccccc12)C(=O)N[C@@H](CCCCN)C(=O)N[C@H](C(=O)N[C@H](C(=O)N[C@@H](CCCNC(=N)N)C(=O)N[C@@H](CCCCN)C(=O)N[C@@H](Cc1c[nH]c2ccccc12)C(=O)N[C@@H](CCCCN)C(=O)N[C@@H](C)C(=O)N[C@H](C(=O)N[C@@H](Cc1c[nH]c2ccccc12)C(=O)N[C@@H](Cc1c[nH]cn1)C(N)=O)[C@@H](C)CC)C(C)C)[C@@H](C)CC)C(C)C — MIC (broth dilution; ATCC 19606): 6.3 µM
CC[C@H](C)[C@H](NC(=O)[C@H](CCCCN)NC(=O)[C@H](CCCCN)NC(=O)CNC(=O)[C@H](CCCCN)NC(=O)[C@H](CC(C)C)NC(=O)[C@H](CCCCN)NC(=O)[C@H](CCCNC(=N)N)NC(=O)[C@@H](NC(=O)[C@H](CC(C)C)NC(=O)[C@H](CCCNC(=N)N)NC(=O)[C@@H](N)CCCNC(=N)N)[C@@H](C)CC)C(=O)N[C@@H](Cc1ccc(O)cc1)C(=O)N[C@@H](CC(C)C)C(=O)N[C@@H](Cc1ccc(O)cc1)C(=O)N[C@@H](Cc1ccccc1)C(=O)N[C@@H](CCCCN)C(=O)N[C@@H](CC(C)C)C(=O)N[C@@H](CCC(N)=O)C(=O)N[C@@H](CC(C)C)C(=O)N[C@@H](CC(C)C)C(=O)N[C@@H](CCCCN)C(=O)N[C@@H](CCCCN)C(N)=O — MIC (ATCC BAA1605, Mueller-Hinton broth; 24 h): 4 µM
